Experimental data from different studies.
Parts stem from different laboratories: compare values within a part only. “And” joins repeats or separate records; there may be more than shown.
Chain of UniProt Q9NYA1 (whole entry, looked up): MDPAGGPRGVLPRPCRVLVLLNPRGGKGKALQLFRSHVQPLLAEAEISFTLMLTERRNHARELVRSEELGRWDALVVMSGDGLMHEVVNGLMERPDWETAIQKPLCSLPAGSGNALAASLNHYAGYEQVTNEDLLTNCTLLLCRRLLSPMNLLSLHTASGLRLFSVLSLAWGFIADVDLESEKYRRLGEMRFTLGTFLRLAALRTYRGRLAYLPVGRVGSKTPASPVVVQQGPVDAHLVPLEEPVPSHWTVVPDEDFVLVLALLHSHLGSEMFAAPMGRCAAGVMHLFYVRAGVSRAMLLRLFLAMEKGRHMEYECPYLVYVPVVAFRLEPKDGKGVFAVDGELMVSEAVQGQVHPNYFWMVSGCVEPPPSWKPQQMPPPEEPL
Chain of UniProt P15735 (whole entry, looked up): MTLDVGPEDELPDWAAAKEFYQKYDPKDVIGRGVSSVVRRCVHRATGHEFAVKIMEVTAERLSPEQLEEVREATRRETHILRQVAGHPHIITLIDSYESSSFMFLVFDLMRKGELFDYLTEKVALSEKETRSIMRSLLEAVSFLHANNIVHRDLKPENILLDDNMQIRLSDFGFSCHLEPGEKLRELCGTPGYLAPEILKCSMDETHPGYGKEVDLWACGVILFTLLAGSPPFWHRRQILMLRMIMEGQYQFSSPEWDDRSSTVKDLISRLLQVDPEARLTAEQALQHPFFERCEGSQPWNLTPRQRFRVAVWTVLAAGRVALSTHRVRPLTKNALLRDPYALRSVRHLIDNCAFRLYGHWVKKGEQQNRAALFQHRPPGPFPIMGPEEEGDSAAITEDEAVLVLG
Chain of UniProt Q06187 (whole entry, looked up): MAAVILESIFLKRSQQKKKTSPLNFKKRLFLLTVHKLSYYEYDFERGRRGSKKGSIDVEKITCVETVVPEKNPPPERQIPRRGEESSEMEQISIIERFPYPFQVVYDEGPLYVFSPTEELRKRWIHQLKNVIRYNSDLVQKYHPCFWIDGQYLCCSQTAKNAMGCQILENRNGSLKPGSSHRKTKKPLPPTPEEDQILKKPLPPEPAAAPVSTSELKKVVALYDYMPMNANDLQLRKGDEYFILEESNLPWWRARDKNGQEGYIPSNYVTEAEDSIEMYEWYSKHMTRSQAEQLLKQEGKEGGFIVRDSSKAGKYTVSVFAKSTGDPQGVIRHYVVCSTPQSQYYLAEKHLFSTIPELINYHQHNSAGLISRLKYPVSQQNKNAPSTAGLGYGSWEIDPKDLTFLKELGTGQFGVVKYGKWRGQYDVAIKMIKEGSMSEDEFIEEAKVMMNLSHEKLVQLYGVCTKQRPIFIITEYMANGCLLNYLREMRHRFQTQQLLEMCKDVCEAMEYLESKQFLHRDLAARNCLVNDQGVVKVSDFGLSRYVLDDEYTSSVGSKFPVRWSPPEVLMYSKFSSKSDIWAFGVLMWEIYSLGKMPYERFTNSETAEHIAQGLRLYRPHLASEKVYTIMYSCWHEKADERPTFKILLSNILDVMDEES
Chain of UniProt P50613 (whole entry, looked up): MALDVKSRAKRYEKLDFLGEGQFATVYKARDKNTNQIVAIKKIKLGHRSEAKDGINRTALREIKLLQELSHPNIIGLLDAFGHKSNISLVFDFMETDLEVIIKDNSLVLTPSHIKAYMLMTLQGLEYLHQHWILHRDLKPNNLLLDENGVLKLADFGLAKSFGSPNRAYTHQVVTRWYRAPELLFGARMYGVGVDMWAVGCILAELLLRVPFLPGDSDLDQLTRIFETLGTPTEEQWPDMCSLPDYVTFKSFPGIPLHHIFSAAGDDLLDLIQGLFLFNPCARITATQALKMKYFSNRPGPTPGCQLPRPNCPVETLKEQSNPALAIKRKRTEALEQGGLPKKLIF

Block 1 — read-out: thermal unfolding; technique: differential scanning fluorimetry; tested at: 5.5 µM; direction: higher = more unfolded; endpoint: SYPRO Orange fluorescence
SMILES: C[C@@H]1CN(c2ccc(-c3cc(C(=O)NCCOCCOCCOCCOCCNC(=O)/C=C/c4[nH]cc(C(=O)N[C@@H](CC(N)=O)c5ccc(F)c(Cl)c5)c4-c4ccc(Cl)cc4F)ccc3F)cc2NC(=O)c2c[nH]c(=O)cc2C(F)(F)F)C[C@H](C)N1C
WDR5: WD repeat-containing protein 5 (WDR5, Homo sapiens, UniProt P61964)
DCAF1: DDB1- and CUL4-associated factor 1 (DCAF1, Homo sapiens, UniProt Q9Y4B6)
Chain of UniProt Q9Y4B6 (whole entry, looked up): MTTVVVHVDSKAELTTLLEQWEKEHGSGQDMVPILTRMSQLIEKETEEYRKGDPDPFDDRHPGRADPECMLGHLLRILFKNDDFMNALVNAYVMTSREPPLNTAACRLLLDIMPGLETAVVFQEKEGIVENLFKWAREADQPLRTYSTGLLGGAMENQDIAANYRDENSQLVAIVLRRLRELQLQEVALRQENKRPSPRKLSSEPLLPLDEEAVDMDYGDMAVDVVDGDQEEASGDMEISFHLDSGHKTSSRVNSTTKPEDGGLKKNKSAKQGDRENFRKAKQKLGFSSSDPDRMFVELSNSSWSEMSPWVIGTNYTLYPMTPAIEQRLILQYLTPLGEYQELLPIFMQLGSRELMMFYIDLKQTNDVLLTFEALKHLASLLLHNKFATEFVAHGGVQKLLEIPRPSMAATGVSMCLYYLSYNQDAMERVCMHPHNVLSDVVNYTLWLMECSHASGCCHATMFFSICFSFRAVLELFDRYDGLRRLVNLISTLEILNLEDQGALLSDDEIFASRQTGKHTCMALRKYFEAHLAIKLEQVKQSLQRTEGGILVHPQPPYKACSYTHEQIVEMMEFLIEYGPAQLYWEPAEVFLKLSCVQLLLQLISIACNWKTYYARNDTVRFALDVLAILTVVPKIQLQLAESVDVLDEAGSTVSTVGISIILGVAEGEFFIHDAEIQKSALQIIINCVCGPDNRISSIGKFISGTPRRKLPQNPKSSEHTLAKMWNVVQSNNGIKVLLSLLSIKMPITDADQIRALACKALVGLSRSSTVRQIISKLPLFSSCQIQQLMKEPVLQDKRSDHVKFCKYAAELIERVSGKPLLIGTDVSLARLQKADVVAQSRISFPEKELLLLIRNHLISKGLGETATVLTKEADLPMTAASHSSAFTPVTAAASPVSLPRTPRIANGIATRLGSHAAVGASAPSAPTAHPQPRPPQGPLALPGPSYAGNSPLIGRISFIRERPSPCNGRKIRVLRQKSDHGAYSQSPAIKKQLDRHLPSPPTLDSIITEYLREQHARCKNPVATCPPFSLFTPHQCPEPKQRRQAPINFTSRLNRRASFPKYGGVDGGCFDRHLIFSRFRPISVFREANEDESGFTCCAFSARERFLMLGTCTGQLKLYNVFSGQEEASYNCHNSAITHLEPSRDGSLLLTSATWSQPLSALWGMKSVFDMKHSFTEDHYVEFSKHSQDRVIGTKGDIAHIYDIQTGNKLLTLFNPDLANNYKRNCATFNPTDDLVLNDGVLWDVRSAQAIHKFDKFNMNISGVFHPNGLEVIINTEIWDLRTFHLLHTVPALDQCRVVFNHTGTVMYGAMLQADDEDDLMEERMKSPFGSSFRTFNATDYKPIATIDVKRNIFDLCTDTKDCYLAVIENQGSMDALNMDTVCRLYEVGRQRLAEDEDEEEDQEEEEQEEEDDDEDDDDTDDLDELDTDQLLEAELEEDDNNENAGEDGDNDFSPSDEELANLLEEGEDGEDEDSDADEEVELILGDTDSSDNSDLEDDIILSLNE
WDR5; 51.4 °C: 16800 a.u.
WDR5; 56.61 °C: 16600 a.u.
DCAF1; 82.41 °C: 42700 a.u.
WDR5; 81.81 °C: 45500 a.u.
WDR5; 93.61 °C: 46800 a.u.
WDR5; 71.61 °C: 18700 a.u.
DCAF1; 92.81 °C: 31800 a.u.
DCAF1; 47.6 °C: 14200 a.u.
DCAF1; 45.8 °C: 13400 a.u.
WDR5; 77.61 °C: 33100 a.u.
DCAF1; 50 °C: 15200 a.u.

Block 2 — read-out: kinase activity; endpoint: inhibition
Structure (SMILES): CNc1ncc2cc(-c3cc(OC)cc(OC)c3Cl)c(=O)n(CCc3ccc(NC(=O)C(C#N)=CC(C)(C)N4CCOCC4)cc3)c2n1
Tyrosine-protein kinase ABL2 (ABL2, Homo sapiens, UniProt P42684); 1 µM: 6%
Ephrin type-B receptor 3 (EPHB3, Homo sapiens, UniProt P54753); 1 µM: 0%
RAC-gamma serine/threonine-protein kinase (AKT3, Homo sapiens, UniProt Q9Y243); 0.1 µM: 0%
Serine/threonine-protein kinase Nek9 (NEK9, Homo sapiens, UniProt Q8TD19); 1 µM: -6%
Mast/stem cell growth factor receptor Kit (KIT, Homo sapiens, UniProt P10721); 1 µM: 24%
Mitogen-activated protein kinase kinase kinase kinase 4 (MAP4K4, Homo sapiens, UniProt O95819); 0.1 µM: 0%
Tyrosine-protein kinase BTK (BTK, Homo sapiens, UniProt Q06187); 1 µM: -15%
RAC-alpha serine/threonine-protein kinase (AKT1, Homo sapiens, UniProt P31749); 0.1 µM: 3%
Tyrosine-protein kinase Blk (BLK, Homo sapiens, UniProt P51451); 1 µM: -2%
Sphingosine kinase 1 (SPHK1, Homo sapiens, UniProt Q9NYA1); 1 µM: 2%
Glycogen synthase kinase-3 alpha (GSK3A, Homo sapiens, UniProt P49840); 1 µM: -7%
Epidermal growth factor receptor (EGFR, Homo sapiens, UniProt P00533); 1 µM: 1%
Death-associated protein kinase 3 (DAPK3, Homo sapiens, UniProt O43293); 0.1 µM: 1%
Serine/threonine-protein kinase N1 (PKN1, Homo sapiens, UniProt Q16512); 1 µM: 0%
Cyclin-dependent kinase 7 (CDK7, Homo sapiens, UniProt P50613); 0.1 µM: -5%
Protein kinase C epsilon type (PRKCE, Homo sapiens, UniProt Q02156); 1 µM: 13%
Proto-oncogene tyrosine-protein kinase Src (SRC, Homo sapiens, UniProt P12931); 0.1 µM: 5%
Phosphorylase b kinase gamma catalytic chain, liver/testis isoform (PHKG2, Homo sapiens, UniProt P15735); 0.1 µM: -1%
Focal adhesion kinase 1 (PTK2, Homo sapiens, UniProt Q05397); 0.1 µM: 5%
cAMP-dependent protein kinase catalytic subunit PRKX (PRKX, Homo sapiens, UniProt P51817); 1 µM: 1%
Serine/threonine-protein kinase PLK2 (PLK2, Homo sapiens, UniProt Q9NYY3); 0.1 µM: -8%

Block 3 — read-out: binding; technique: HTRF; endpoint: inhibition
SMILES: Cc1ncc(-c2cc3c(N)c(-c4c(C)ccc(O)c4C)cnc3[nH]2)cn1
Target: Membrane-associated tyrosine- and threonine-specific cdc2-inhibitory kinase (PKMYT1, Homo sapiens, UniProt Q99640)
Chain of UniProt Q99640 (whole entry, looked up): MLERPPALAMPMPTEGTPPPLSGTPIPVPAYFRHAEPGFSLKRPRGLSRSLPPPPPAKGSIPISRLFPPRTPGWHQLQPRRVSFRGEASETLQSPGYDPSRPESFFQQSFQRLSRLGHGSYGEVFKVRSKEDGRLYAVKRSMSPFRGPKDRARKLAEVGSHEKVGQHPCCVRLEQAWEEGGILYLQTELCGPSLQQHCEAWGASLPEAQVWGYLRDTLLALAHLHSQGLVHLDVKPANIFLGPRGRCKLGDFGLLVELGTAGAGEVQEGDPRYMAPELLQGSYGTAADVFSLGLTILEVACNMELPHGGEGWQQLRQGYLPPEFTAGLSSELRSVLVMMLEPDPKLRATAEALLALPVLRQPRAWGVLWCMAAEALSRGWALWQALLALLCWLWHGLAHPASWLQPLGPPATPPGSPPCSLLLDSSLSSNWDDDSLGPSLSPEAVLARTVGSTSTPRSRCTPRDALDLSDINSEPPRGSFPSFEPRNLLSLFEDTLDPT
0.051 nM: -4.33% and -10.4%
333.33 nM: 87.4% and 87.1%
4.12 nM: -4.99% and 1.89%
0.15 nM: -13.1% and -11.3%

Block 4 — read-out: enzyme activity; mode: inhibitor; technique: Ub-TR-FRET; matrix: HECT domain; tested at: 0.01524 µM; direction: higher = more chain formation; endpoint: ubiquitin chain formation AUC
Target: E3 ubiquitin-protein ligase NEDD4, HECT domain (Homo sapiens, UniProt P46934)
Construct (P46934 938-1319, limits assumed): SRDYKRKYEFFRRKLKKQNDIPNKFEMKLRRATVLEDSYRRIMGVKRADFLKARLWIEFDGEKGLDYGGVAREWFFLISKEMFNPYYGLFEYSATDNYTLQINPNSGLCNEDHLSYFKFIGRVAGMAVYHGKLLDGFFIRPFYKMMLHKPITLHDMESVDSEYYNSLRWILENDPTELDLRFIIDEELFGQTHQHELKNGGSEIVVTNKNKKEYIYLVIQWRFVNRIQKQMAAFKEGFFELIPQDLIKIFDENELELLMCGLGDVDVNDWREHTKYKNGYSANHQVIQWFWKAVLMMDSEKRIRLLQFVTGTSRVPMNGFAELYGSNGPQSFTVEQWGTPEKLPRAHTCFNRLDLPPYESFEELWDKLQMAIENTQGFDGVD
CCOC(=O)/C=C/CNCCCCN1c2cc(Cl)ccc2COc2ccccc21.O=C(O)/C=C\C(=O)O: 93200 a.u. and 93500 a.u.
CNC(=O)/C=C/CNCCCN1c2ccccc2CCc2ccc(Cl)cc21.Cl: 130000 a.u. and 132000 a.u. and 134000 a.u.
COC(=O)CCCNCCCN1c2ccccc2CCc2ccc(Cl)cc21.COC(=O)CCCNCCCN1c2ccccc2CCc2ccc(Cl)cc21.O=C(O)/C=C/C(=O)O: 133000 a.u. and 132000 a.u.
CN(C)C(=O)/C=C/CNCCCN1c2ccccc2CCc2ccc(Cl)cc21.Cl: 140000 a.u. and 141000 a.u.
CNCCCN1c2ccccc2CCc2ccc(Cl)cc21: 144000 a.u. and 146000 a.u. and 143000 a.u.
CC(C)ONC(=O)/C=C/CNCCCCN1c2ccccc2CCc2ccc(Cl)cc21.O=C(O)/C=C\C(=O)O: 38200 a.u. and 32700 a.u. and 37700 a.u. and 38700 a.u. and 32100 a.u. and 32400 a.u.
CCONC(=O)/C=C/CNCCCCN1c2ccccc2CCc2ccc(Cl)cc21.O=C(O)/C=C\C(=O)O: 37300 a.u. and 26500 a.u. and 27100 a.u. and 37800 a.u. and 37500 a.u.
CCOC(=O)/C=C/CN(CCCCN1c2ccccc2CCc2ccc(Cl)cc21)C(C)C.O=C(O)/C=C\C(=O)O: 85500 a.u. and 85300 a.u. and 84600 a.u. and 85800 a.u. and 86300 a.u.
CNC(=O)/C=C/CNCCCCN1c2ccccc2CCc2ccc(Cl)cc21.Cl: 71500 a.u. and 89600 a.u. and 86600 a.u. and 88100 a.u. and 70400 a.u. and 70100 a.u.
CCOC(=O)/C=C/CNCCCCN1c2cc(Cl)ccc2CCc2cnn(C)c21.O=C(O)/C=C\C(=O)O: 71300 a.u. and 72900 a.u. and 67200 a.u. and 67600 a.u. and 70800 a.u. and 68700 a.u.
CCOC(=O)/C=C/CN(CC)CCCCN1c2ccccc2CCc2ccc(Cl)cc21.O=C(O)/C=C\C(=O)O: 95300 a.u. and 103000 a.u. and 91400 a.u. and 95200 a.u. and 104000 a.u. and 102000 a.u.
CCOC(=O)/C=C/CNCCCCN1c2ccccc2C(=O)N(C)c2ccc(Cl)cc21.O=C(O)/C=C\C(=O)O: 94200 a.u. and 92600 a.u. and 99000 a.u.

Repeated from above (block 2):
Epidermal growth factor receptor (EGFR, Homo sapiens, UniProt P00533); 1 µM: 1%
Serine/threonine-protein kinase N1 (PKN1, Homo sapiens, UniProt Q16512); 1 µM: 0%
Tyrosine-protein kinase BTK (BTK, Homo sapiens, UniProt Q06187); 1 µM: -15%
Proto-oncogene tyrosine-protein kinase Src (SRC, Homo sapiens, UniProt P12931); 0.1 µM: 5%
